Results pooled from the literature.
Every numbered part comes from another study and shows a few of its results, in no order. Changes are numbered by the printed parent chain.

Set 1
Target: Transcription factor SOX-2, HMG box (Sox2, Mus musculus, UniProt P48432, residues 41-119)
Sequence of UniProt P48432 (41-119, looked up): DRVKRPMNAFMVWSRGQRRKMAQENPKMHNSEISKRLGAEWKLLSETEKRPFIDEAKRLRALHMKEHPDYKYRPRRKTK
Method: Spec-seq
Form: double-stranded DNA, one strand shown
Matrix: in vitro
Tested at: not given
Notes: whole probe, mean of replicates
Reference: not given
Reading: lower = stronger binding
All sequences stand within: GAGTCGTCTCGTCAGCAC … CCGTAGAGCACTCAGGTC
For `CTAGGTT`, “relative binding energy” read 0.939 ln ratio.
`CATGGGG`: “relative binding energy” 0.117 ln ratio.
`CGAGGTT` — result for “relative binding energy”: 1.33 ln ratio.
For `CTGGGTT`, “relative binding energy” read 1.48 ln ratio.
`CGCAGTT`: “relative binding energy” 0.685 ln ratio.
`ATCCGTT`: “relative binding energy” 0.711 ln ratio.

Set 2
Target: ABI1, truncated, D143A, DHFR fusion (Arabidopsis thaliana)
Method: DHFR PCA, deep sequencing
Matrix: yeast
Notes: methotrexate growth selection, single substitutions
With: (+)-ABA 58 µM
Reference: wild-type fitted maximum
Reading: higher = stronger binding
Starting sequence: PYL1, truncated, DHFR fusion (Arabidopsis thaliana); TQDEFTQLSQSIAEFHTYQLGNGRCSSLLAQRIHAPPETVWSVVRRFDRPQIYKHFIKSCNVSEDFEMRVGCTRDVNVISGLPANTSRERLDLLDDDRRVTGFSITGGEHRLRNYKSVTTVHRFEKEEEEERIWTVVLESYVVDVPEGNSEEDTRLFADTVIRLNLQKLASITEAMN
`V43K`: “relative binding score” 40.4%.
Under “relative binding score”, `V118L` is recorded as 67.8%.
`T119S` — result for “relative binding score”: 41.6%.
`I33M` — result for “relative binding score”: 69.8%.
For `V137Y`, “relative binding score” read 3.37%.
Under “relative binding score”, `M68R` is recorded as 53.5%.
`E89C` — result for “relative binding score”: -4.79%.
`N177W`: “relative binding score” 72.9%.
`F103K`: “relative binding score” -13%.

Set 3
Target: CCNE2, cyclin fold, Cln2 fusion (human)
Method: yeast growth competition, sequencing
Matrix: yeast
Notes: strong parent motif
Reference: not given
Reading: higher = stronger binding
Starting sequence: SCAPER docking peptide (human); SNARRSLNFGGST
For `G11E`, “normalised enrichment score” read 0.526.
For `S1P`, “normalised enrichment score” read 0.995.
`L7D` — result for “normalised enrichment score”: 0.642.
For `F9C`, “normalised enrichment score” read 0.0639.
`N8R`: “normalised enrichment score” 0.792.
Under “normalised enrichment score”, `G10W` is recorded as 1.44.

Single results of other studies
The fold induction of `PhoQ, residues 284 288 289 292 302 303 ASSHFY` is reported as 19.7 (PhoP, residues 12 14 15 18 19 LYFRQ (Escherichia coli, UniProt P23836); Sort-seq, measured: YFP reporter; E. coli; PhoQ-PhoP variant library, with: 10 µM Mg2+; reference: high Mg2+ state, higher = stronger signaling).
